Results of several laboratories.
Each numbered part is a random draw from the data of one study; scales do not carry over between parts.

Set 1 — technique: protein binding microarray; molecule type: double-stranded DNA, one strand shown; sample: in vitro; tested at: not given; relative to: not given; direction: higher = stronger binding; measurement: E-score
Target: Histone acetyltransferase KAT6A, both winged helices, GST fusion (KAT6A, Homo sapiens, UniProt Q92794, residues 1-181)
Setting: 8-mer, flanks averaged, mean of 2 arrays, mostly near background
Construct (chain): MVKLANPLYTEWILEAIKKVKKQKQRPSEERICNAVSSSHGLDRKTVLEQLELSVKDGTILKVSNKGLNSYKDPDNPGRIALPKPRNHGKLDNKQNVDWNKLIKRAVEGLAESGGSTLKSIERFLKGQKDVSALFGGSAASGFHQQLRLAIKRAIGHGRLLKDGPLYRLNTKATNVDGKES
AGCGCTAG: 0.155
CGCATCCA: 0.266
AGTGTGTA: -0.0283
AGGCAATA: -0.163
CTCGCCCC: -0.0629
AACCCTAG: -0.184
AGTAAACA: -0.181
ATCACATC: -0.0891

Set 2 — technique: RNAcompete; molecule type: RNA; sample: in vitro; tested at: 20 nM; setting: 7-mer, probes averaged, single round; relative to: mean of 7-mers; direction: higher = stronger binding; measurement: 7-mer Z-score
Target: PABPC1L2, full length, GST fusion (mouse, UniProt A0ABA7IW68)
Residues (chain): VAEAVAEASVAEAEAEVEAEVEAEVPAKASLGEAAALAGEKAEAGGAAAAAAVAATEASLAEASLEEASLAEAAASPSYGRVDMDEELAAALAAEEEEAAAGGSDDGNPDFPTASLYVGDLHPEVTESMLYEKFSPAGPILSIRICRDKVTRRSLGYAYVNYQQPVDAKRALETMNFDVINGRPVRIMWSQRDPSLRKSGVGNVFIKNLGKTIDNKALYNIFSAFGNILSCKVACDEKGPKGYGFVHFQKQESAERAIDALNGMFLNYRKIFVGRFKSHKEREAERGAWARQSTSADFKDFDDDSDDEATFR
CGCACAC: -0.229
UGGUAGC: -0.155
AUCCGCG: -0.287
AGGUUCC: -0.186
GAUAACU: -0.137
CUAAUCC: -0.362
UCGGUAC: -0.186
GCACCGU: -0.153

Other studies, line by line
GALNT2 (Homo sapiens, UniProt Q10471)  cross-linked residues (TMED4 (Homo sapiens, UniProt Q7Z7H5); cross-linking MS; cell fractions; together with: DMTMM): K546 to D165
PhoQ, residues 284 288 289 292 302 303 GLASVI  fold induction (PhoP, residues 12 14 15 18 19 SGWQI (Escherichia coli, UniProt P23836); Sort-seq, item: YFP reporter; E. coli; PhoQ-PhoP variant library, together with: 10 µM Mg2+; relative to: high Mg2+ state, higher = stronger signaling): 10.9
COPB1 (Homo sapiens, UniProt P53618)  cross-linked residues (GOLGA4 (Homo sapiens, UniProt Q13439); cross-linking MS; cell fractions; together with: DMTMM): D942 to K1941
KKAKRRLFTISDS  binding score (human cyclin A2; peptide binding, competitive growth sequencing; peptide, Saccharomyces cerevisiae, cyclin A2-Cln2 fusion strain; concentration not given, mutational scanning library; relative to: unfused Cln2 strain, direction not given): 1.36
ASNS (Homo sapiens, UniProt P08243)  cross-linked residues (STXBP2 (Homo sapiens, UniProt Q15833); cross-linking MS; cell fractions; together with: DSSO): K244 to T318
ATP5PO (Homo sapiens, UniProt P48047)  cross-linked residues (SIPA1 (Homo sapiens, UniProt Q96FS4); cross-linking MS; cell fractions; together with: DSSO): K199 to T545

Repeated from above (set 1):
AGTGTGTA: -0.0283
AGGCAATA: -0.163
CTCGCCCC: -0.0629
